Published values gathered from unrelated publications.
A part holds a random share of what one study measured.

Block 1 — method: RNA Bind-n-Seq; molecule type: RNA; sample: in vitro; concentration: 365 nM; reference: no-protein control; reading: higher = stronger binding
Target: RNA binding protein fox-1 homolog 2, RRM domain, GST-SBP tag (RBFOX2, Homo sapiens, UniProt O43251-10, residues 100-194)
Notes: natural RNA segment, single round, ends assumed
Constant ends, left off below: GGGAGUUCUACAGUCCGACGAUC … UGGAAUUCUCGGGUGCCAA
Construct (chain): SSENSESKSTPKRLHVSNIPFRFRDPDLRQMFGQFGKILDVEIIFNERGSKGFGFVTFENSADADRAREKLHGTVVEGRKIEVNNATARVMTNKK
Strand	RBNS enrichment (R)
ACCACUUAACAUCCGUACUGUUUGUUAUAUAUUUCUCCCGACCCUACUCCCCACUCCUGCCACCAAGCACAUCCGGUCUAGGGGUUCCUCACUCUCUUUCAUUUAGCUGC	0.648
CUUCUAGAAUGCUCUGUCCAGGGUCUGCAACUUCCCUGGGCUCUGACUUAGGAGUGAUGUGGCUAACUGAGGCCUGAGUGAGUGUGUAGAUUGUCCUUGGGUGAGUGAGA	3.82
GAGCGUGGGGCCCCCAGGCCCCACCAGCACCGUCCUCCCCUAAUGAGGGGCCCUGCCGAGGCAUCAGCUGCUCUGCUCAGUUAGUUUUUAUUCCCGGGGUACCAAGCAGC	0.227
UACCAAAGCAAUAUUUCUUUGGGAUUCAGUUCAGUGUUUGUGGCAUCUAAUCUGAUCCUUCUUUACGUGUCUAAAUCAAGACUGUAUCCACAUUUUACCACGCGGCCAUA	0.302
UUCCUCCUUUGCUUUCACUUCUUAAGUAUAUGUGUUCUGAAGUUGAGAUGGGAGAGAUUUGAAUAUAGAAUUUUUAUUCUCAAACUGUUUAGUCAUCUAAGGCUUCAUUG	0.562
CUUUCAAACAGCGCCUCCACCUGGCCUACUCUGUUAUUUCCACCUGUUUGGGUAGGGCCAUUUAACUUCCAUUAUGCCAAACUUGGGAUGGGAUUUUCGAAGCAGACAAC	0.325
AGCAGCUGCUGGUGGCUUGGGACAUCAGUGGGGCCAAGGGUUCUCUGUCCCUGGUUCAACUGUGAUUUGGCUUUCCCGUGUCUUUCCUGGUGAUGCCUUGUUUGGGGUUC	0.306
UGGAGACAUAGGGGCUGCUACCAGGGGAGGAACACACCUGGGUGUGGGGCAGCUUCUGGCAUCUUCCCAGGCCCCCUUUCCCAGCCGGGUGUGGAGCUAGGUAGGCUAGG	0.479
AACAUUUUAAUAUGUAUGCAUUCACCUUGCCUCUUGCACAAAUGUCAAAAUGGAAAGAUGGGAAUGUCUCAAAACAAAAUGAGCUUGGAGAUUACCAAGCAGUUUGCUGA	0.293
CUCAGAGCCGCCCACCCUGGAUGAAUUCUGGUCCUUCAGAGAAUCGGCCCUACCAUGGCAUGCAUGGAGGUGGUCCUGGUGGUCCUGGAGGUGGCCCCCACAGCUUCCCA	0.995
GCUUCCACUCCAGGGCUCUUGAUCUCUGCUGGAUUGGGGGUGGCCACCUCAGAAACUUCCACCCUCAUGACUGGAAUGGAAGAGGGGACCGAGAGCCUCACAAUCUCGGA	0.903
AUUGGAGCCCUCUCUCCCAUUCUGUGAUGAGUACAGCAGAGACCUUCCUGCUUUUUACUGGGGACUCCAGAUUUUCCCCAAACUUGCUUCUGUUGAGAUUUUUCCCUCAC	0.72

Block 2 — method: protein binding microarray; molecule type: double-stranded DNA, one strand shown; sample: in vitro; concentration: not given; reference: not given; reading: higher = stronger binding
Target: Histone acetyltransferase KAT6A, winged helix 2, GST fusion (KAT6A, Homo sapiens, UniProt Q92794, residues 85-181)
Notes: 8-mer, flanks averaged, mean of 2 arrays, mostly near background
Target sequence (chain): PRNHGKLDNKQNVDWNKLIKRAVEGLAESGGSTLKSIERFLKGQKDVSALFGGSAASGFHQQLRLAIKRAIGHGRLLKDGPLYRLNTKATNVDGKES
Strand	E-score
CGAGGCAC	0.105
GCATAGCA	0.154
CTGAGGCA	0.0223
CGCGGGAC	0.0741
AAGGGTAG	-0.222
AGTGGGGC	-0.255
CTTCGTTA	0.0149
TATGACAA	0.0826
ATTCGACC	0.0676
GAAACTCC	0.0629
CAAACGGC	-0.0801
ATACCCGG	0.119
ACTGGGAT	-0.0299
ATGGCACG	-0.136
AGCGGGGG	0.0828
GGCAGCGA	0.0506
GAAATATC	0.0351
CTAACAAG	-0.0737
GGACTCGA	-0.238
ACTCCGAA	0.0281

Block 3 — method: RNA Bind-n-Seq; molecule type: RNA; sample: in vitro; concentration: 200 nM; notes: whole 134-nt RNA, ends assumed; with: 150 mM KCl; reference: input library; reading: higher = stronger binding
Target: Fragile X messenger ribonucleoprotein 1, C-terminal low-complexity region (Fmr1, Mus musculus, UniProt P35922)
Constant ends, left off below: GGGAGUUCUACAGUCCGACGAUC … UGGAAUUCUCGGGUGUCAAGG
Strand	log2 enrichment
ACCAUGCAGGUGGGCAUCUUUGGGAAGUGGGGCAAGGGGGGGAUAGGGAGGGGGGUAACACUUUGGGAACAGGUGGUCCCAGCUCGUUUC	1.01
CCUCAAGUCCUGUGCUACACAUCGUAUGUACCGAAUCGGGCGGGGCGGGCGGAAAGUAUUAUGUUACGCCGUUCGGAUCUGCACUUCCAG	0.655
UUAGGCACUUGUUGGGCUCAUCACCGUUGUGUGGAGUGGUCACUAGGAGUAUGCCAGAUGGAAGAACCAUUGUUAGUGAACGUGGACAAA	-1.89
UGCAGCUGCUGGCCGCCUCCUAUGACCUGCACCGCUACUUCUACACGGGUGCCGAGAUCCUGGGCCUCAUCGACGAGAAGCACCGCGAGC	-0.103
CACAGACAACACGCACCCACACAGACACAGAGGGAAGGGGUUGGGAUGGGGACAGGGUGCACAGCAGGGCGGGGUCGGACCCCAGCCCCU	1.38
AAGUCCUGUGCUACACAUCGUAUGUACCGAAUCGGGAAAAAGGGUUUGGGAAAGGGAAAGUAUUAUGUUACGCCGUUCGGAUCUGCACUU	0.172
UGCAGGGUCUGGGUAGCAGCUGGGCUUCCAGCUUUCUCCUUGCACCUGACUUGGGCUUUUUUCUCCUCACAGGAUGGGCCUUGACGGCAU	-0.451
AGUCCUGUGCUACACAUCGUAUGUACCGAAUCGGUUUUUGGGUUUUUGGGUUUUUGGGAAAGUAUUAUGUUACGCCGUUCGGAUCUGCAC	-0.336
UAACUUUAGAGGAGGAUCUGAUGGAUAUGGCAGUGGUCGUGGAUUUGGGGAUGGCUAUAAUGGGUAUGGAGGAGGACCUGGAGGUGGCAA	0.144
UGGCCCUGGUGGCAUGCGGGGAGGAAGAGGUGGCCUCAUGGAUCGUGGUGGUCCCGGUGGAAAGUUCAGAGGUGGCCGUGGUGGAGACAG	-0.021
UGAGAGGUGGAUUUUGUUUAUUUUUUUAGCUCAUUUCCAGGGGUGGGAAUUUUUUUUUAAUAUGUGUCAUGAAUAAAGUUGUUUUUGAAA	0.32
UCCUGUGCUACACAUCGUAUGUACCGAAUCGGGGAAAAAGGGGAAAGGGGUUUUUGGGGAAAGUAUUAUGUUACGCCGUUCGGAUCUGCA	0.701
UUAGGAAGAGAAGACAAGGUGGCCUCUCAUUAGAAGAAGAGGAAGAGGAGGAUGCCAAUUCAGAAUCUGAGGGAAGCAGUAGUGAGGAGG	-1.09
CUCAAGUCCUGUGCUACACAUCGUAUGUACCGAAUCGGGGCGGGGCGGGCGGGGAAAGUAUUAUGUUACGCCGUUCGGAUCUGCACUUCC	1.14

Block 4 — method: protein-binding microarray; molecule type: double-stranded DNA, one strand shown; sample: in vitro; concentration: 940 nM top; notes: 60-bp whole probe; with: salmon DNA 0.4 mg/ml; reference: random background probes; reading: higher = stronger binding; constant ends, left off below: GCCTAGCAC … GTCTTGATTCGCTTGACGCTGCTG
Target: Interferon regulatory factor 5, full length, phosphomimetic (IRF5, Homo sapiens, UniProt Q13568-2, residues 1-514, S451D/S453D/S456D/S462D)
Strand	fitted relative affinity
TTAGGTCTCCTTCTCATTTAGTGCTAG	0.705 z-score
GACGATTTCAGTATCCAGACGTGCTAG	0.502 z-score
GATGATTTCGGGTATCGAGACGTGCTA	1.48 z-score
GGATGTCTGTAGCTCATTCTGTGCTAG	-0.589 z-score
GCAACATTCACCATGGCTAGGTGCTAG	0.02 z-score
TTAGATATCAGACTGGATTGGTGCTAG	-0.289 z-score
TCACTGTTCTTTTCAGTACTGTGCTAG	0.825 z-score
TCATCCTTTGCTTTCTCACTGTGCTAG	1.34 z-score
TCACGTCTCTATCAAAAACTGTGCTAG	1.01 z-score
GACGGTTTCCTTCTCCCGACGTGCTAG	2.6 z-score
TCATCTTTAACATATTCTACTGTGCTA	1.44 z-score
CAGCGCGCAGCTGCCAGAACGTGCTAG	-0.898 z-score
TCAGATGTCAAACTCACACTGTGCTAG	-0.464 z-score
TCAATTCTCTGCTTCTGACTGTGCTAG	1.41 z-score
GACGGTATCCGACTGGGGACGTGCTAG	-0.319 z-score
TCAGTTGTGATTCTTTCACTGTGCTAG	0.142 z-score
TACGGTTTCCTTATCCTGACGTGCTAG	1.43 z-score
GACGAACTTAGTCTCGAGACGTGCTAG	1.25 z-score
GACGGTTTCCTGATCCTGACGTGCTAG	0.528 z-score
TTAGATATCGGGTGTCGATTAGTGCTA	0.397 z-score
TCAGAATTTACTTTCTACGTGTGCTAG	0.664 z-score
TCATGCTTGTGTCTGGGACTGTGCTAG	-0.407 z-score
TCAGTTTTGAGCTCTGTCTGGGTGCTA	0.104 z-score
TTAGCTATCAGACTGGATTAGTGCTAG	-0.612 z-score
TCATCTCCCAGACTGGAGTGGTGCTAG	-0.634 z-score

For quick reference, copied from above (block 4):
Strand	fitted relative affinity
GCAACATTCACCATGGCTAGGTGCTAG	0.02 z-score
TTAGATATCAGACTGGATTGGTGCTAG	-0.289 z-score
TCACTGTTCTTTTCAGTACTGTGCTAG	0.825 z-score
TCATCCTTTGCTTTCTCACTGTGCTAG	1.34 z-score
TCACGTCTCTATCAAAAACTGTGCTAG	1.01 z-score
GACGGTTTCCTTCTCCCGACGTGCTAG	2.6 z-score
TCATCTTTAACATATTCTACTGTGCTA	1.44 z-score
CAGCGCGCAGCTGCCAGAACGTGCTAG	-0.898 z-score
TCAGATGTCAAACTCACACTGTGCTAG	-0.464 z-score
TCAATTCTCTGCTTCTGACTGTGCTAG	1.41 z-score
